Published values of several laboratories.
Each numbered part is a random draw from the data of one study; scales do not carry over between parts. “And” joins repeats or separate records; there may be more than shown.
UniProt Q8WTQ7, sequence (whole entry, looked up): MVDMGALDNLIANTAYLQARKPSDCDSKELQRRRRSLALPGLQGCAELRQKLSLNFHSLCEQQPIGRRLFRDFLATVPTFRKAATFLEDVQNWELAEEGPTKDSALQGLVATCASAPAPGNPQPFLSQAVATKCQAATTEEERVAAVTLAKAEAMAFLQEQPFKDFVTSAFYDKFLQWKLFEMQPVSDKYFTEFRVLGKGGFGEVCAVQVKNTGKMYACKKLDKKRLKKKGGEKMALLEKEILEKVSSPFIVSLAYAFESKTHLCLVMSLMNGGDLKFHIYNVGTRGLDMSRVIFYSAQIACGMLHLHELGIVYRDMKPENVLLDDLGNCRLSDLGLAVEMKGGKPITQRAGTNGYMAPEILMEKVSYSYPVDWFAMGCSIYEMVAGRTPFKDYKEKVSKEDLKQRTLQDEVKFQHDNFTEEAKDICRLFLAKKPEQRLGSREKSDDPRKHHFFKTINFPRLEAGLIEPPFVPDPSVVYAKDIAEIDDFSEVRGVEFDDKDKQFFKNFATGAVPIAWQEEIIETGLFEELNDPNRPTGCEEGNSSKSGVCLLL
UniProt P11362, sequence (whole entry, looked up): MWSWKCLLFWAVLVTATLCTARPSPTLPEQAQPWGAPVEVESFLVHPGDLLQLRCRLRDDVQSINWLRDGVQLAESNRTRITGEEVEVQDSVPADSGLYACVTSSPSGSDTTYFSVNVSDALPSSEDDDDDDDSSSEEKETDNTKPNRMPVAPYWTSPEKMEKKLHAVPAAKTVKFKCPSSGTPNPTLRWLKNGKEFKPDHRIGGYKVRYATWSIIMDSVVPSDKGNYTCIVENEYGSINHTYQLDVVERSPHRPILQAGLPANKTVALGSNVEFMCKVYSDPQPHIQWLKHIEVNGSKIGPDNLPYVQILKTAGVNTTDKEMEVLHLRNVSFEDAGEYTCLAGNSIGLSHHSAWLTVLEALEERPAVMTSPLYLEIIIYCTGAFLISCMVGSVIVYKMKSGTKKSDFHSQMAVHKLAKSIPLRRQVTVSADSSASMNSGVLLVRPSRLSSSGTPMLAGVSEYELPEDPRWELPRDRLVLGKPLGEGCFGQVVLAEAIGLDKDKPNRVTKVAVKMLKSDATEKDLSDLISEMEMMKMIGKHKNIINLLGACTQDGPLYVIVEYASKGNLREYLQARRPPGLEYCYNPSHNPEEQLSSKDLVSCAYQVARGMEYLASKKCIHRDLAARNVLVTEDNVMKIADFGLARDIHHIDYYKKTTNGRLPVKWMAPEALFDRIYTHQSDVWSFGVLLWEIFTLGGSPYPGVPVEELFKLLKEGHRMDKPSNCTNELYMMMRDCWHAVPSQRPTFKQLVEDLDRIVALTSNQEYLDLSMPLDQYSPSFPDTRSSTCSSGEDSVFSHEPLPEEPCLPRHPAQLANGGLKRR
UniProt P22607, sequence (whole entry, looked up): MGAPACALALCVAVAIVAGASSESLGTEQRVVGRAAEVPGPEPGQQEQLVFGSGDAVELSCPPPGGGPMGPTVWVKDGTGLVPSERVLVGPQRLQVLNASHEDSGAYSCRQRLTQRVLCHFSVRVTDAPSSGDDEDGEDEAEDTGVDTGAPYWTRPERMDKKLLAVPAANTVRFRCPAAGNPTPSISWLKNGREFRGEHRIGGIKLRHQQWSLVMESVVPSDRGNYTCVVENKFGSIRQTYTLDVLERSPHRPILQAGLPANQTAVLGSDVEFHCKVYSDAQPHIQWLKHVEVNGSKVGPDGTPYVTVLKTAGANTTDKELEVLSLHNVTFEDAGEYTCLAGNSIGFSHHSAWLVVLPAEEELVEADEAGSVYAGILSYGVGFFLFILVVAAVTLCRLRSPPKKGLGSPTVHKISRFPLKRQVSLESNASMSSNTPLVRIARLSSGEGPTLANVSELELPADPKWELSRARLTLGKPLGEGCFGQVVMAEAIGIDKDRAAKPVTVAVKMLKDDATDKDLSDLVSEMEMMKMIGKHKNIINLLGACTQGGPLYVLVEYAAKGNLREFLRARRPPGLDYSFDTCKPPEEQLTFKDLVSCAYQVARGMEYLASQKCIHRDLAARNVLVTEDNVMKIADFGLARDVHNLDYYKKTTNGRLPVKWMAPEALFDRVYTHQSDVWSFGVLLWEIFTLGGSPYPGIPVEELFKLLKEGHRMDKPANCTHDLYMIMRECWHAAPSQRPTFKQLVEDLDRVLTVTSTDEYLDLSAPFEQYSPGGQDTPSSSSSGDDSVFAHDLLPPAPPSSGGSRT
UniProt P42685, sequence (whole entry, looked up): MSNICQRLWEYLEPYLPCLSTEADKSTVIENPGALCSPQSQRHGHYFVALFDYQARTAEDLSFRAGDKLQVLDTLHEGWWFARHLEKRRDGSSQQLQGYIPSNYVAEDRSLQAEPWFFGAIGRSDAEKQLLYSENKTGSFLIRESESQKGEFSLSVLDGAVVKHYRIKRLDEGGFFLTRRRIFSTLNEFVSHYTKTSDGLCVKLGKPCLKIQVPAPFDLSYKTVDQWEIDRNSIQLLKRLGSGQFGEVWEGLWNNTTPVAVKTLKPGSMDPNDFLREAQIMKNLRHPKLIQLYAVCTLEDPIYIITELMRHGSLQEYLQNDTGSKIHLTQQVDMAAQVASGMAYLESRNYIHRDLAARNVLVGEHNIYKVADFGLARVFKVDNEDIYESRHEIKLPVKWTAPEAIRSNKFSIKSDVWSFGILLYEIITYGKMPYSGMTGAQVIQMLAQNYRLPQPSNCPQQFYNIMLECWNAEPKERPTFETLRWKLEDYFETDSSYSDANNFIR
UniProt Q02763, sequence (whole entry, looked up): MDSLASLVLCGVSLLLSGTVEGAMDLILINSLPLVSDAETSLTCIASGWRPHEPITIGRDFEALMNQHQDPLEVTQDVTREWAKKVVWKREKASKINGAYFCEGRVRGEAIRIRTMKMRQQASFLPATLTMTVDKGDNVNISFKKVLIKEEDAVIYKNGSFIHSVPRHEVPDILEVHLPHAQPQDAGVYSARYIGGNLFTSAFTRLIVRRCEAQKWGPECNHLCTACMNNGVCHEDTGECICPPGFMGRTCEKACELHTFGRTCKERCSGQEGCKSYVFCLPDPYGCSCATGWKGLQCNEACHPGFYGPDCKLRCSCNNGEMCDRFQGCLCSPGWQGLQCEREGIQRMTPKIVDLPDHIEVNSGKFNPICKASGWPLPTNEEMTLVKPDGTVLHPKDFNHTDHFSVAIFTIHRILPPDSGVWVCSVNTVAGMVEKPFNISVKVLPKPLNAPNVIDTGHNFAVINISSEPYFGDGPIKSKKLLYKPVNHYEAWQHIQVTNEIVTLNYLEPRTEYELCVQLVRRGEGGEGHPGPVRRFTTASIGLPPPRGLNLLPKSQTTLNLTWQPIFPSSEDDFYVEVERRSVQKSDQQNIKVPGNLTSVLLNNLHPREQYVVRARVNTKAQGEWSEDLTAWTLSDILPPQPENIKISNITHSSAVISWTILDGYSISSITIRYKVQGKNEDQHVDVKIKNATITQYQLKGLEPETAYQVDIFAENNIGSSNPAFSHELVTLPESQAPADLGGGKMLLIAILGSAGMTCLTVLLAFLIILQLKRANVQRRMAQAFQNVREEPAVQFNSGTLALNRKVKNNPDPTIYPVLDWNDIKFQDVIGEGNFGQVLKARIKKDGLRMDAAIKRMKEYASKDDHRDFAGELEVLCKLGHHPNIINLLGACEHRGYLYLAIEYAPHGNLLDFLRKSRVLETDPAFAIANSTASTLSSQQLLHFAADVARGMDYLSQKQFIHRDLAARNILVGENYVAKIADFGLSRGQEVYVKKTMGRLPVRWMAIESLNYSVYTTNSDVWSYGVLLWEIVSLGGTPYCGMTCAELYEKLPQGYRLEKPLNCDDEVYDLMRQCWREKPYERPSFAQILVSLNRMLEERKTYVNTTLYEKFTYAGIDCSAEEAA
UniProt Q6PHR2, sequence (whole entry, looked up): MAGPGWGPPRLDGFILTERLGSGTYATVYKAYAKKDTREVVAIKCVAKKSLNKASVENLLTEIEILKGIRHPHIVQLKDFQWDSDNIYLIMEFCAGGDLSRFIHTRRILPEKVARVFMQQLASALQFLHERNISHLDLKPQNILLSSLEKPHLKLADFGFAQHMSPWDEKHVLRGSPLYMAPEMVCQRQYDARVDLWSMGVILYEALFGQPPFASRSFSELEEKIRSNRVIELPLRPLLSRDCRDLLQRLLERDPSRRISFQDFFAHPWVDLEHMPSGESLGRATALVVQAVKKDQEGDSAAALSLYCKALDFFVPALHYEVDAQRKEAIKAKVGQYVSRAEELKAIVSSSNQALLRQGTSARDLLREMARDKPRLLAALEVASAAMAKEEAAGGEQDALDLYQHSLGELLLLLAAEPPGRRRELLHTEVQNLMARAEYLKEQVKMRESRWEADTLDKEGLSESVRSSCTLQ

Series 1 — organism: Leishmania donovani; strain: DD8
Compound: c1ccc(Oc2ccc(Nc3c4c(nc5ccccc35)CCC4)cc2)cc1
test	test system	conditions	inhibition
parasite viability, resazurin	promastigotes	0.016 µM	0% and -2%
parasite killing	intracellular amastigotes	0.08 µM, 72 h	15% and 16%
parasite killing	promastigotes	16.66 µM, 96 h	100%
parasite killing	promastigotes	33.33 µM, 72 h	100%
parasite viability, resazurin	promastigotes	0.16 µM	0% and 12% and -2% and 13%
parasite viability, resazurin	promastigotes	0.033 µM	1% and -1%
parasite killing	promastigotes	16.66 µM, 24 h	99%
parasite killing	intracellular amastigotes	20 µM, 72 h	100%

Series 2 — read-out: binding; technique: radioligand binding; tested at: 10 µM
Target: Alpha-2B adrenergic receptor (ADRA2B, Homo sapiens, UniProt P18089)
UniProt P18089, sequence (whole entry, looked up): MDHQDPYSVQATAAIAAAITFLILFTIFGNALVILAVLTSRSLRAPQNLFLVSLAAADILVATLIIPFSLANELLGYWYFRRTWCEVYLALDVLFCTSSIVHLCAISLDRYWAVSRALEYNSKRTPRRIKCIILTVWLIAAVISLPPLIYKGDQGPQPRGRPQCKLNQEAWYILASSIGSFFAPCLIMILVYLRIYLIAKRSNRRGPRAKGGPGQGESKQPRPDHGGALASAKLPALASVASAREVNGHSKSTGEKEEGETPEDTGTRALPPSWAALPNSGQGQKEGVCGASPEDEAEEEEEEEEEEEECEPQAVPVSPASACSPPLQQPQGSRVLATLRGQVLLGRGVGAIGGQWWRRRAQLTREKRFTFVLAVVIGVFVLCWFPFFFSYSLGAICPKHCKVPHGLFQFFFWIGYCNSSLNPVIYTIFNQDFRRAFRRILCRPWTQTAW
SMILES	inhibition
O=C(Nc1ccc(-n2nc(-c3cccnc3)cc2C(F)(F)F)cn1)c1ccc(-c2ccccc2)c(F)c1	1.26%
CC(=O)c1c(NS(C)(=O)=O)c2cc(-c3ccc(Cl)cc3)c(-c3ccc(Cl)cc3Cl)nc2n(C)c1=O	67.2%
Cc1c[nH]c2nccc(Oc3c(F)cc(Nc4cc(Cl)nc(N)n4)cc3F)c12	11.7%
CC1=C(C#N)[C@@H](c2ccc3[nH]nc(C)c3c2)C(C#N)=C(c2ccc(Cl)cc2)N1	4.71%
Cc1cc(C)c(-n2ccn3nc(-c4cccnc4)cc23)cc1NC(=O)c1cc(C#N)cc(S(F)(F)(F)(F)F)c1	18.1%
O=C1c2ccc(Nc3ccc(F)cc3F)cc2CCc2ccc(OC[C@H](O)CO)cc21	4.37%
CN([C@@H]1CCc2c(CC(=O)O)c3cc(S(C)(=O)=O)ccc3n2C1)S(=O)(=O)c1ccc(F)cc1	-2.39%
CC(=O)N1CCC(c2ccc(C(=O)NC(=N)N)cc2C(F)(F)F)CC1	6.29%

Series 3
Compound: CC(=O)N[C@@H](Cc1c[nH]c2ccccc12)C(=O)N[C@@H](CCC(=O)C=[N+]=[N-])C(=O)OC(C)C
test system	conditions	tumour volume
mouse, EL4 tumour	subcutaneous, 1 mg/kg, day 7	385 mm3 and 557 mm3 and 389 mm3 and 494 mm3 and 280 mm3 and 469 mm3
mice, MC-38 tumour rechallenge	1 mg/kg, day 18 after injection	0 mm3
mouse, EL4 tumour	subcutaneous, 0.1 mg/kg, day 17	694 mm3 and 559 mm3 and 878 mm3 and 871 mm3 and 2410 mm3 and 78.4 mm3
mice, MC-38 tumour rechallenge	0.26 mg/kg, day 64 after injection	0 mm3

Series 4 — read-out: enzyme activity; action: inhibitor; tested at: 0.5 µM; relative to: control
SMILES: O=C1Nc2ccc(Br)cc2/C1=C/c1cc2c([nH]1)CCCC2
target	remaining activity
Rhodopsin kinase GRK7 (GRK7, Homo sapiens, UniProt Q8WTQ7)	85.2%
Angiopoietin-1 receptor (TEK, Homo sapiens, UniProt Q02763)	98.2%
Mitogen-activated protein kinase kinase kinase 5 (MAP3K5, Homo sapiens, UniProt Q99683)	101%
Tyrosine-protein kinase ABL2 (ABL2, Homo sapiens, UniProt P42684)	82.6%
Fibroblast growth factor receptor 3 (FGFR3, Homo sapiens, UniProt P22607)	55.8%
Tyrosine-protein kinase JAK3 (JAK3, Homo sapiens, UniProt P52333)	89.3%
Serine/threonine-protein kinase ULK3 (ULK3, Homo sapiens, UniProt Q6PHR2)	55.5%
Tyrosine-protein kinase Mer (MERTK, Homo sapiens, UniProt Q12866)	81.2%
Casein kinase I isoform gamma-2 (CSNK1G2, Homo sapiens, UniProt P78368)	96.8%
Fibroblast growth factor receptor 1 (FGFR1, Homo sapiens, UniProt P11362)	76.7%
Casein kinase I isoform gamma-3 (CSNK1G3, Homo sapiens, UniProt Q9Y6M4)	103%
MAP kinase-activated protein kinase 2 (MAPKAPK2, Homo sapiens, UniProt P49137)	97.5%
Tyrosine-protein kinase FRK (FRK, Homo sapiens, UniProt P42685)	91%
Ephrin type-A receptor 3 (EPHA3, Homo sapiens, UniProt P29320)	94.6%
Serine/threonine-protein kinase TAO2 (TAOK2, Homo sapiens, UniProt Q9UL54)	89.4%

Further values, each from its own experiment
SMILES	target	test	test system	conditions	quantity	value
C=C(F)C(=O)N1CCN(c2nc(OC[C@@H]3CCCN3C)nc3c2CCN(c2cccc4cccc(Cl)c24)C3)C[C@@H]1CC#N	GTPase HRas (HRAS, Homo sapiens, UniProt P01112)	binding, competitor, NanoBRET	HEK293	9.14 nM	normalized BRET	93.2% and 91.4%

Some of these lines once more (series 4):
target	remaining activity
Tyrosine-protein kinase JAK3 (JAK3, Homo sapiens, UniProt P52333)	89.3%
Tyrosine-protein kinase Mer (MERTK, Homo sapiens, UniProt Q12866)	81.2%
Fibroblast growth factor receptor 3 (FGFR3, Homo sapiens, UniProt P22607)	55.8%
